Results of several laboratories.
Lines come from different studies, so protocols differ. ± marks the error that the study gave.
CDK6 with cyclin D1: Cyclin-dependent kinase 6, with cyclin D1 (CDK6, Homo sapiens, UniProt Q00534)
Sequence of UniProt Q00534 (whole entry, looked up): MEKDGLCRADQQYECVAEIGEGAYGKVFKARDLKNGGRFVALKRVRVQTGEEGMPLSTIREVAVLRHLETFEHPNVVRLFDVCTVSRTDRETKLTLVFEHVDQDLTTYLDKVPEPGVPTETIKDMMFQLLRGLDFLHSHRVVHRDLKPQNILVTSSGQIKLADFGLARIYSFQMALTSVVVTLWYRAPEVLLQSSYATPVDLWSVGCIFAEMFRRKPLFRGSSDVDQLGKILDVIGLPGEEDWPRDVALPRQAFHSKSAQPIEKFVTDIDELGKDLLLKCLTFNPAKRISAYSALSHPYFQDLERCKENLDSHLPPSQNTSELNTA
SIRT5: NAD-dependent protein deacylase sirtuin-5, mitochondrial (SIRT5, Homo sapiens, UniProt Q9NXA8)
Sequence of UniProt Q9NXA8 (whole entry, looked up): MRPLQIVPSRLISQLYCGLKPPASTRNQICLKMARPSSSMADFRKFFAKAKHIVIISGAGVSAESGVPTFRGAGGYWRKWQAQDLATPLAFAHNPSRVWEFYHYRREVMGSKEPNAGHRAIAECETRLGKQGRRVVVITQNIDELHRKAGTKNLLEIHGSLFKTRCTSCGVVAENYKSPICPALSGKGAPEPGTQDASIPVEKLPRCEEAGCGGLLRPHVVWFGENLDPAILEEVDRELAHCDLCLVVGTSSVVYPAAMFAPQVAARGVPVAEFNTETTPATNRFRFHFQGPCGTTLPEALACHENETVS
DRD2: D(2) dopamine receptor (DRD2, Homo sapiens, UniProt P14416)
Sequence of UniProt P14416 (whole entry, looked up): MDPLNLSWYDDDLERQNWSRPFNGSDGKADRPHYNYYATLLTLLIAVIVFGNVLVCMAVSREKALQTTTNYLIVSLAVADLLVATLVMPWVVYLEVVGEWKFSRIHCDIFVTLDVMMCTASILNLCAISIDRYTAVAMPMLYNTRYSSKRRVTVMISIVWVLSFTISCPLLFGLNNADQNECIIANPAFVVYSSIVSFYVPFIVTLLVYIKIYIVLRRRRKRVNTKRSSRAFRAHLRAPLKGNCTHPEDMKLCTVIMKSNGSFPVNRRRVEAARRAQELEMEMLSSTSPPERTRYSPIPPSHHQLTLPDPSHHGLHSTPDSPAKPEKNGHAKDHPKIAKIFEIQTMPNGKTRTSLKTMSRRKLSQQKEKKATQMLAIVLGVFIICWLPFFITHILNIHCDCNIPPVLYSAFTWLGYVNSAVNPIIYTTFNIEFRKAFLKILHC
Lysine--tRNA ligase, cytoplasmic: Lysine--tRNA ligase, cytoplasmic (Arabidopsis thaliana, UniProt Q9ZPI1)
Sequence of UniProt Q9ZPI1 (whole entry, looked up): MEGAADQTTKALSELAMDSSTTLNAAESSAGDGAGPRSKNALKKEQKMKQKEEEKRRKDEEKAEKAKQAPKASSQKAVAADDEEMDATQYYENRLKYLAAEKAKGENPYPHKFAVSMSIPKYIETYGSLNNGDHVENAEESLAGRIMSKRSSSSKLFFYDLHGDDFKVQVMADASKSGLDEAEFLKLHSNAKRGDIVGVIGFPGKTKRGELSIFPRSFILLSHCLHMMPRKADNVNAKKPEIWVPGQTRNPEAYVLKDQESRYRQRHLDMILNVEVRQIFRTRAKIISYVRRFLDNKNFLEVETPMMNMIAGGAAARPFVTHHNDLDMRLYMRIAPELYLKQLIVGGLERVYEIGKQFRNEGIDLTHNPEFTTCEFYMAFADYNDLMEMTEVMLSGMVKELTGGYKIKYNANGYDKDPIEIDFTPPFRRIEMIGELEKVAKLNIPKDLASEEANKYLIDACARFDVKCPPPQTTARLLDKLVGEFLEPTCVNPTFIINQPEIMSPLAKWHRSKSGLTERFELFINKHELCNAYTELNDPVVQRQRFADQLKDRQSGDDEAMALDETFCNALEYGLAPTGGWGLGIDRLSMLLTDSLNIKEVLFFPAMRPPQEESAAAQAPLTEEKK
TAF1L BD2: Transcription initiation factor TFIID subunit 1-like, BD2 (TAF1L, Homo sapiens, UniProt Q8IZX4)
MCL1: Induced myeloid leukemia cell differentiation protein Mcl-1 (MCL1, Homo sapiens, UniProt Q07820)
NTRK2: BDNF/NT-3 growth factors receptor (NTRK2, Homo sapiens, UniProt Q16620)
Sequence of UniProt Q16620 (whole entry, looked up): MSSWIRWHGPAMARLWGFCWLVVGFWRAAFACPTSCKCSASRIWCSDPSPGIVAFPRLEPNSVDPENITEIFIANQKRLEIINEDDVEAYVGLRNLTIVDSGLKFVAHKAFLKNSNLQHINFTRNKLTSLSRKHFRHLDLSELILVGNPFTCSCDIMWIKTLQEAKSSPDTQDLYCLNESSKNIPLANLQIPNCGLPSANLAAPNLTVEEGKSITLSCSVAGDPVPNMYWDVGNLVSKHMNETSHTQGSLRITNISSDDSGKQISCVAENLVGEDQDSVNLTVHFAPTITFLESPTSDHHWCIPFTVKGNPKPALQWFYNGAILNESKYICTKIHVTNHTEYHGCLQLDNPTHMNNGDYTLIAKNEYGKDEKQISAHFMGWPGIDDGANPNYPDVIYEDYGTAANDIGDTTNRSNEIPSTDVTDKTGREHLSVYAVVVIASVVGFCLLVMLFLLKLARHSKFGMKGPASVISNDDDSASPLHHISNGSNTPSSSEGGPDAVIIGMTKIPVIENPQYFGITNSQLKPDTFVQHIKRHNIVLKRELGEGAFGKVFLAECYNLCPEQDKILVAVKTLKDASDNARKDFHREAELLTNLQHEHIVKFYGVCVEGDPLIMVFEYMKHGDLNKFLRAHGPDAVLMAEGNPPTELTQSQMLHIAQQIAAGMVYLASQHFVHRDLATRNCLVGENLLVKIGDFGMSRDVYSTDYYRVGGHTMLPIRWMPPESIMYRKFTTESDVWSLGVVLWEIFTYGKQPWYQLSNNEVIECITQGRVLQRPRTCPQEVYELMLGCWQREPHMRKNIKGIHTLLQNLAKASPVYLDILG
CSNK1E: Casein kinase I isoform epsilon (CSNK1E, Homo sapiens, UniProt P49674)
Sequence of UniProt P49674 (whole entry, looked up): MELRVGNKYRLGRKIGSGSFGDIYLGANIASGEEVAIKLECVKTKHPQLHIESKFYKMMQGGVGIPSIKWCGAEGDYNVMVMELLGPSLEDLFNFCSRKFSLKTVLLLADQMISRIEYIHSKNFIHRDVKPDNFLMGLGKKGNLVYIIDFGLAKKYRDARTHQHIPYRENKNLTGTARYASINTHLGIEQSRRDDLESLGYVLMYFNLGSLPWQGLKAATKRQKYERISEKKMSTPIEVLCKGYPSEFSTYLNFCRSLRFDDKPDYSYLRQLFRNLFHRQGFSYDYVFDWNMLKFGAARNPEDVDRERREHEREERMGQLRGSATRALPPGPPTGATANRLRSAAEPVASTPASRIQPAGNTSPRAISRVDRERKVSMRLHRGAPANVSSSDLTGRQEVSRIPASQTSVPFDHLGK
KRAS with SOS1: GTPase KRas, with SOS1 (KRAS, Homo sapiens, UniProt P01116)
KRAS C118S/G12V with SOS1: GTPase KRas, with SOS1 (KRAS, Homo sapiens, UniProt P01116, C118S/G12V)
DNA polymerase catalytic subunit: DNA polymerase catalytic subunit (Human cytomegalovirus, UniProt P08546)
Sequence of UniProt P08546 (whole entry, looked up): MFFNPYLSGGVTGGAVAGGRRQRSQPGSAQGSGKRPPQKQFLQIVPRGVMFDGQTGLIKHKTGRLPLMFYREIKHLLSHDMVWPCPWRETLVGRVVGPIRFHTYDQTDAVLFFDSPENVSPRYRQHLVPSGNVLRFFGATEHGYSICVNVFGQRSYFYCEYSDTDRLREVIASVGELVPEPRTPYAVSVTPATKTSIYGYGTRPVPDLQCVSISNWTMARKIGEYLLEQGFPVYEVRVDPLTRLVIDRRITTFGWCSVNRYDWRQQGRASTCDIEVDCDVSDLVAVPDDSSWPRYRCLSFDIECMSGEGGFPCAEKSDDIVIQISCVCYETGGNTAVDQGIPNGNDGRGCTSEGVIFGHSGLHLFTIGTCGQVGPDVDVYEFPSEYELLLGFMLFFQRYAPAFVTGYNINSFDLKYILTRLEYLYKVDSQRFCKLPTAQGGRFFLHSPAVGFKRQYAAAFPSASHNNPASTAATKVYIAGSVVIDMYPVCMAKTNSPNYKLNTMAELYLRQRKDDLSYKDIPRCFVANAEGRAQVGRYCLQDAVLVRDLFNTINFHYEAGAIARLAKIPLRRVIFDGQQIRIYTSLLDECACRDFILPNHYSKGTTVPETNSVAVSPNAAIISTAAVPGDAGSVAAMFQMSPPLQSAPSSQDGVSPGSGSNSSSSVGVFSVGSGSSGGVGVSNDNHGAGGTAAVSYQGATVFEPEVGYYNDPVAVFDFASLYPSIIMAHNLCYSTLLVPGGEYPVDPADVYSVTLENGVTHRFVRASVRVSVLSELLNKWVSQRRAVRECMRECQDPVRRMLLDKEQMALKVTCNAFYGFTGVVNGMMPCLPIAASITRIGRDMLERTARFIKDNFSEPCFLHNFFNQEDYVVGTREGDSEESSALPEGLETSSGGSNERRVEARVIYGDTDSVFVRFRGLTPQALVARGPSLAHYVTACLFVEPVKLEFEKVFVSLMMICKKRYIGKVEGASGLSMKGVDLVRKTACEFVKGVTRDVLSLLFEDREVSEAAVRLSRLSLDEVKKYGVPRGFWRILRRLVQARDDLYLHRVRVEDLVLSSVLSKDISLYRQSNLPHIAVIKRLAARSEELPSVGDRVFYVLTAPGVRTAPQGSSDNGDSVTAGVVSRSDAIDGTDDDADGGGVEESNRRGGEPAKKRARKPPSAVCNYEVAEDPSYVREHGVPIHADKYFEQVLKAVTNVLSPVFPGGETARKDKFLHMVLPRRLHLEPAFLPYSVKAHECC
PTGS2: Prostaglandin G/H synthase 2 (PTGS2, Homo sapiens, UniProt P35354)
Sequence of UniProt P35354 (whole entry, looked up): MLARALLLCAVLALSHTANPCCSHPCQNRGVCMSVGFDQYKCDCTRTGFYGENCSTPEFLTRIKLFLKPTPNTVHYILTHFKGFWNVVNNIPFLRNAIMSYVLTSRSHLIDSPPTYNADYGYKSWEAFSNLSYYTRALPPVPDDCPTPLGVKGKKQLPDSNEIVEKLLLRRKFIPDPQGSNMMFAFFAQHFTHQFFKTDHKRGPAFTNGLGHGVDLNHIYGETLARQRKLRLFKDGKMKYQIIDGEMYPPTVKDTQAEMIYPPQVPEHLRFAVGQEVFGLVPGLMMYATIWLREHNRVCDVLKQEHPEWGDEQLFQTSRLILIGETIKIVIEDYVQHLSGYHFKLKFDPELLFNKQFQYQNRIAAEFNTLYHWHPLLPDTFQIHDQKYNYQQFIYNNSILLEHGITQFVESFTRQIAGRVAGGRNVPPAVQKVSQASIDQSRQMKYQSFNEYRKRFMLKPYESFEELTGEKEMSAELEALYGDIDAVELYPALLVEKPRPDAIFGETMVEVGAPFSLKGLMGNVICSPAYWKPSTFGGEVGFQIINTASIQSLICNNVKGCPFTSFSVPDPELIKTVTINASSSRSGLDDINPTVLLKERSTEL
Sequence of UniProt P39135 (whole entry, looked up): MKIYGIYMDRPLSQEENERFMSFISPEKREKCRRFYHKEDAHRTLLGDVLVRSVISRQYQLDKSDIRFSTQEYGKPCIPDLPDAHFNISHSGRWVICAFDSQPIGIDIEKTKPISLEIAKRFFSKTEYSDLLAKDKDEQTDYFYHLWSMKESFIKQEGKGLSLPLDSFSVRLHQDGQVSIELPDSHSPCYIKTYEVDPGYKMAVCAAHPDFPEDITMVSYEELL

O=C(CN1C(=O)Cc2c([nH]c3ccc(Br)cc23)-c2ccc(Cl)cc21)Nc1nncs1 — IC50 (Trypanothione synthetase (Trypanosoma cruzi, UniProt Q9GT49); enzyme activity): ~30000 nM
CN(C)C(=O)c1cc2cnc(Nc3cncc(-c4cccc5c(=O)cc(N6CCOCC6)oc45)c3)nc2n1C1CCCC1 — IC50 (CDK6 with cyclin D1; inhibitor, HotSpot radiometric kinase; together with: 10 µM ATP, cyclin D1): 39 nM
C[C@H]1CN(C(=O)CC#N)[C@]12CCN(c1ncnc3[nH]ccc13)C2 — IC50 (SLC22A8 (Homo sapiens, UniProt Q8TCC7); transport, inhibitor): 6380 nM
Cc1ccc2[nH]nc(-c3nnc(Nc4cc(Cl)cc(Br)c4)s3)c2c1 — IC50 (α-glucosidase; enzyme activity, inhibitor; pH 6.8, together with: p-nitrophenyl-α-D-glucopyranoside): 9590 ± 1760 nM
O=C(CCC(=O)N[C@@H](CCCCNC(=S)NCCc1cc(O)on1)C(=O)N[C@@H](Cc1c[nH]c2ccccc12)C(=O)NC1CCC1)NCCOCCOCCCCCCCl — IC50 (SIRT5; enzyme activity, inhibitor): 190 ± 10 nM
Cc1cc(OC(C)C)ccc1C(=O)C(C)(C)NC(=O)c1sccc1C — IC50 (mitochondrial complex II-III (succinate-cytochrome c oxidoreductase), Pythium; enzyme activity, inhibitor; mitochondrial fraction; 25 °C): > 1 µg/mL
Cc1nc2ccc(Cl)cc2c(=O)n1NC(=O)CCl — IC50 (XDH (Bos taurus, UniProt P80457); enzyme activity, inhibitor): 233300 ± 2120 nM
Cc1[nH]c(C)c(S(=O)(=O)Nc2ccc(N(C)C)c(Cl)c2)c1C(=O)N1CCC(F)(F)C1 — IC50 (DRD2): > 100000 nM
Cc1ccnc(NC(=S)N2CCN(c3cccc(C(F)(F)F)c3)CC2)c1 — IC50 (sfp (Bacillus subtilis, UniProt P39135); enzyme activity, inhibitor, qHTS): 1900 nM
C=Cc1c(N)nsc1C(=O)NCC1CCCCC1 — IC50 (Lysine--tRNA ligase, cytoplasmic; enzyme activity, inhibitor): 7940 nM
Cc1cc2c(cc1N1C(=O)c3cccc4cccc(c34)C1=O)n(C)c(=O)n2C — IC50 (TAF1L BD2; HTRF; GST-tagged protein): 374 nM
COc1ccccc1-c1nccc(COc2ccccc2C[C@@H](Oc2cccc3sc(-c4ccc(F)cc4)c(-c4ccc(OCCN5CCN(C)CC5)c(Cl)c4C)c23)C(=O)O)n1 — IC50 (MCL1; binding, quench): 1.8 nM
CCc1cc2c(cc1N1CCC(N3CCOCC3)CC1)C(C)(C)c1[nH]c3cc(C#N)ccc3c1C2=O — IC50 (NTRK2; cell-based): 6180 nM
Cc1ccc2[nH]nc(-c3nnc(Nc4ccc(F)cc4)s3)c2c1 — IC50 (α-glucosidase; enzyme activity, inhibitor; pH 6.8, together with: p-nitrophenyl-α-D-glucopyranoside): 2130 ± 1130 nM
COc1cccc(OC)c1-c1nc(-c2ccc(F)cc2)c(-c2ccncc2)[nH]1 — IC50 (CSNK1E; inhibitor): 503 ± 23.3 nM
COc1cc2c(c(OC)c1OC)-c1c(cc3c(c1OC)OCO3)[C@H](OC(=O)c1ccccc1)[C@@](C)(O)[C@@H](C)C2 — IC50 (Cytochrome P450 3A5 (CYP3A5, Homo sapiens, UniProt P20815); midazolam 1'-hydroxylation, inhibitor, recombinant enzyme; 15 min, pH 7.4, together with: midazolam 5 µM): 34 ± 1 nM
COc1cc(C(F)(F)F)c(Cl)cc1NS(=O)(=O)c1c(C)[nH]c(C)c1C(=O)N1CCC(F)(F)C1 — IC50 (DRD2): > 100000 nM
Fc1ccc(-c2nc(-c3c(F)cccc3I)[nH]c2-c2ccncc2)cc1 — IC50 (CSNK1E; inhibitor): 63.5 ± 11.4 nM
C[C@H]1CN(C)CCN1c1cccc(-c2noc([C@@]3(C)CCCc4sc(N)c(C#N)c43)n2)n1 — IC50 (KRAS with SOS1; KRAS wild type-SOS1 interaction, inhibitor, AlphaScreen; geometric mean): 104 nM
CN1CCN(c2ccc(Nc3ncc4cc(C#N)c(=O)n(C5CCCC5)c4n3)cc2)CC1 — IC50 (PRKD2 (Homo sapiens, UniProt Q9BZL6)): 131 nM
CN1CCN(c2cc(=O)c3ccc(Nc4ncc5cc(C(=O)N(C)C)n(C6CCCC6)c5n4)cc3o2)CC1 — IC50 (CDK6 with cyclin D1; inhibitor, HotSpot radiometric kinase; together with: 10 µM ATP, cyclin D1): 25.5 nM
Cc1[nH]nc(C(F)(F)F)c1Cc1sc2c(c1C(=O)N1C[C@](C)(O)CO1)c(=O)n(C)c(=O)n2C(C)C — IC50 (SLC16A1 (Homo sapiens, UniProt P53985); L-lactate transport, fluorescence; yeast expressing MCT1; together with: L-lactate): 68 nM
C[C@H]1CNCCCN1c1nccc(-c2noc([C@@]3(C)CCCc4sc(N)c(C#N)c43)n2)n1 — IC50 (KRAS C118S/G12V with SOS1; KRAS G12V-SOS1 interaction, inhibitor, AlphaScreen; geometric mean): 9 nM
Cc1cc2c(cc1N1C(=O)c3cccc4cc(Br)cc(c34)C1=O)n(C)c(=O)n2C — IC50 (TAF1L BD2; HTRF; GST-tagged protein): 96.8 nM
CC1(F)CN(C(=O)Cn2c(=O)c(C(=O)NCc3ccc(Cl)cc3)cc3nc(N4CCCC4=O)cnc32)C1 — IC50 (DNA polymerase catalytic subunit; enzyme activity, inhibitor; at least duplicate): 210 nM
O=C(CCC(=O)N[C@@H](CCCCNC(=S)NCCc1cc(O)no1)C(=O)N[C@@H](Cc1c[nH]c2ccccc12)C(=O)NC1CCC1)NCCOCCOCCCCCCCl — IC50 (SIRT5; enzyme activity, inhibitor): 37000 ± 1000 nM
Fc1ccc(-c2nc(-c3c(F)cccc3F)[nH]c2-c2ccncc2)cc1 — IC50 (CSNK1E; inhibitor): 6.4 ± 0.4 nM
C[C@]1(c2nc(-c3cccc(N4CCNCC4)c3)no2)CCCc2sc(N)c(C#N)c21 — IC50 (KRAS with SOS1; KRAS wild type-SOS1 interaction, inhibitor, AlphaScreen; geometric mean): 1250 nM
CC1(C)CN(C(=O)Cn2c(=O)c(C(=O)NCc3ccc(Cl)cc3)cc3nccnc32)C1 — IC50 (DNA polymerase catalytic subunit; enzyme activity, inhibitor; at least duplicate): 2300 nM
COc1ccccc1-c1nccc(COc2ccccc2C[C@@H](Oc2nccc3nc(-c4ccc(F)cc4)c(-c4ccc(OCCN5CCN(C)CC5)c(Cl)c4C)n23)C(=O)O)n1 — IC50 (MCL1; binding, quench): 8.2 nM
Cc1[nH]c(C)c(S(=O)(=O)Nc2ccc(C(F)(F)F)c(Cl)c2)c1C(=O)N1CC[C@@H](F)C1 — IC50 (DRD2): > 100000 nM
CCn1c(-c2nc3ccc(C(=O)N4CCCC(N)C4)cc3n2C)cc2ccccc21 (stereo not shown) — IC50 (OPRK1 (Homo sapiens, UniProt P41145); antagonist, GTPγS binding): > 100000 nM
Cn1cnc(Cn2ccc3ccc(CNCc4[nH]c5ccccc5c4[C@H]4NC(=O)c5ccc(O)cc54)cc32)c1 — IC50 (GTPase KRas, GppNHp; with RAF1 RBD (KRAS, Homo sapiens, UniProt P01116, Q61R); HTRF): 13400 ± 4700 nM
CC(C)(Oc1ccc(C(=O)c2ccc(Cl)cc2)cc1)C(=O)O — IC50 (PTGS2; inhibitor): 48 nM
CCN1CCN(c2nccc(-c3noc([C@@]4(C)CCCc5sc(N)c(C#N)c54)n3)n2)[C@@H](C)C1 — IC50 (KRAS C118S/G12V with SOS1; KRAS G12V-SOS1 interaction, inhibitor, AlphaScreen; geometric mean): 33 nM
Fc1ccc(-c2nc(-c3ccccc3)[nH]c2-c2ccncc2)cc1 — IC50 (CSNK1E; inhibitor): 681 ± 123 nM
CC[C@@H]1[C@H](F)C(=O)N[C@@H]1COc1nccc2cc(C(N)=O)c(OC)cc12 — IC50 (EPHA2 (Homo sapiens, UniProt P29317); ATP-site binding, ActivX kinase profiling; THP-1 cell lysate): > 5000 nM
C[C@H](NC(=O)c1snc(N)c1Cl)C1CCCCC1 — IC50 (Lysine--tRNA ligase, cytoplasmic; enzyme activity, inhibitor): 3980 nM
COc1c(Cl)cccc1Nc1c(-c2ccncc2OC[C@@H]2COCCO2)[nH]c2c1C(=O)NCC2 — IC50 (BUB1 (Homo sapiens, UniProt O43683); kinase activity, inhibitor, TR-FRET; median value, together with: ATP 2 mM): 5200 nM
CN(C)C(=O)c1cc2cnc(Nc3cncc(-c4ccc5c(=O)cc(N6CCOCC6)oc5c4)c3)nc2n1C1CCCC1 — IC50 (CDK6 with cyclin D1; inhibitor, HotSpot radiometric kinase; together with: 10 µM ATP, cyclin D1): 11.8 nM
Cc1[nH]c(C)c(S(=O)(=O)Nc2ccc(C(F)(F)F)c(Cl)c2Cl)c1C(=O)N1CCC(F)(F)C1 — IC50 (DRD2): > 100000 nM
Nc1nsc(C(=O)NCC2CCCCC2)c1I — IC50 (Lysine--tRNA ligase, cytoplasmic; enzyme activity, inhibitor): 3980 nM
Cc1cc(Nc2ccc(C(F)(F)F)cc2)n2ccnc2n1 — IC50 (DHODH (Homo sapiens, UniProt Q02127); enzyme activity, inhibitor): > 100000 nM
Cc1[nH]c(C)c(S(=O)(=O)Nc2ccc([N+](=O)[O-])c(Cl)c2)c1C(=O)N1CCC(F)(F)C1 — IC50 (DRD2): > 100000 nM
CC(C)C[C@H](NC(=O)[C@H](Cc1cccc2ccccc12)NC(=O)OCc1ccccc1)C(=O)NC(/C=C/C=O)C[C@@H]1CCNC1=O (stereo partly shown) — IC50 (Genome polyprotein, protease domain (Lordsdale virus, UniProt P54634); protease activity, inhibitor, FRET; 37 °C): > 100000 nM
Cc1ccc(NS(=O)(=O)c2c(C)[nH]c(C)c2C(=O)N2CCC(F)(F)C2)cn1 — IC50 (DRD2): > 100000 nM
Cc1cc(Nc2ncc(Cl)c(Nc3ccccc3S(=O)(=O)C(C)C)n2)c(OC(C)C)cc1C1CCNCC1 — IC50 (NTRK2; enzyme activity, inhibitor; together with: 1 mM ATP): > 3300 nM
Cc1ccc(NS(=O)(=O)c2c(C)[nH]c(C)c2C(=O)NC2CCCC2)cc1Cl — IC50 (DRD2): > 100000 nM
CC#CC(=O)N[C@H]1CCCN(c2c(F)cc(C(N)=O)c3[nH]c(C)c(C)c23)C1 — IC50 (JAK1 (Homo sapiens, UniProt P23458)): > 5000 nM
COc1ccc(S(=O)(=O)N(CC(=O)NO)CC(C)C)cc1 — IC50 (Stromelysin-2 (Homo sapiens, UniProt P09238)): 623 ± 11 nM
COc1ccc(-c2cc(OCC(=O)N(C)Cc3cccnc3C)nc(-n3nc(C)cc3C)n2)cc1 — IC50 (LNPEP (Homo sapiens, UniProt Q9UIQ6); 9mer peptide trimming, HPLC; second phase biphasic): ~100000 nM
CN(C)c1ccc(/C=C/c2cn(C(=O)/C=C/c3ccccc3)cc2C(=O)c2ccccc2)cc1 — IC50 (PTGS2; inhibitor): 550 nM
COc1cc(C(=O)NS(=O)(=O)c2ccccc2C)ccc1Cc1cn(C)c2ccc(NC(=O)OC3CCCC3)cc12 — IC50 (LRRC8A/LRRC8C (Homo sapiens, UniProt Q8IWT6+Q8TDW0, L134K/L136K); ion current, inhibitor, whole-cell patch clamp; HCT116 LRRC8-/- transfected; at -100 mV): 3900 nM
Cc1c(C(=O)N2CCC(F)(F)C2)c(S(=O)(=O)Nc2ccc(C(F)(F)F)c(Cl)c2)c(C)n1C — IC50 (DRD2): > 100000 nM
Cc1nn(C)c2ncc(C(=O)NCc3ccccc3)c(Cl)c12 — IC50 (60 kDa heat shock protein, mitochondrial, with HSP10 (Homo sapiens, UniProt P10809); HSP60/10-mediated MDH refolding; 5 min, preincubation before ATP, together with: denatured malate dehydrogenase): 29000 nM

Repeated from above:
COc1c(Cl)cccc1Nc1c(-c2ccncc2OC[C@@H]2COCCO2)[nH]c2c1C(=O)NCC2 — IC50 (BUB1 (Homo sapiens, UniProt O43683); kinase activity, inhibitor, TR-FRET; median value, together with: ATP 2 mM): 5200 nM
CC(C)(Oc1ccc(C(=O)c2ccc(Cl)cc2)cc1)C(=O)O — IC50 (PTGS2; inhibitor): 48 nM
CC#CC(=O)N[C@H]1CCCN(c2c(F)cc(C(N)=O)c3[nH]c(C)c(C)c23)C1 — IC50 (JAK1 (Homo sapiens, UniProt P23458)): > 5000 nM
Cc1nn(C)c2ncc(C(=O)NCc3ccccc3)c(Cl)c12 — IC50 (60 kDa heat shock protein, mitochondrial, with HSP10 (Homo sapiens, UniProt P10809); HSP60/10-mediated MDH refolding; 5 min, preincubation before ATP, together with: denatured malate dehydrogenase): 29000 nM
C[C@H]1CNCCCN1c1nccc(-c2noc([C@@]3(C)CCCc4sc(N)c(C#N)c43)n2)n1 — IC50 (KRAS C118S/G12V with SOS1; KRAS G12V-SOS1 interaction, inhibitor, AlphaScreen; geometric mean): 9 nM
Cc1cc2c(cc1N1C(=O)c3cccc4cc(Br)cc(c34)C1=O)n(C)c(=O)n2C — IC50 (TAF1L BD2; HTRF; GST-tagged protein): 96.8 nM
Cc1[nH]nc(C(F)(F)F)c1Cc1sc2c(c1C(=O)N1C[C@](C)(O)CO1)c(=O)n(C)c(=O)n2C(C)C — IC50 (SLC16A1 (Homo sapiens, UniProt P53985); L-lactate transport, fluorescence; yeast expressing MCT1; together with: L-lactate): 68 nM
